Measured values of several laboratories.
Numbered parts are unrelated; each lists some results of a single study.

Sample 1 — technique: RNA Bind-n-Seq; form: RNA; sample: in vitro; tested at: not given; baseline: input RNA pool; reading: higher = stronger binding
Target: RING finger protein unkempt homolog, zinc fingers 1-6, GST-SBP tag (UNK, Homo sapiens, UniProt Q9C0B0, residues 30-357)
Chain of UniProt Q9C0B0 (30-357, looked up): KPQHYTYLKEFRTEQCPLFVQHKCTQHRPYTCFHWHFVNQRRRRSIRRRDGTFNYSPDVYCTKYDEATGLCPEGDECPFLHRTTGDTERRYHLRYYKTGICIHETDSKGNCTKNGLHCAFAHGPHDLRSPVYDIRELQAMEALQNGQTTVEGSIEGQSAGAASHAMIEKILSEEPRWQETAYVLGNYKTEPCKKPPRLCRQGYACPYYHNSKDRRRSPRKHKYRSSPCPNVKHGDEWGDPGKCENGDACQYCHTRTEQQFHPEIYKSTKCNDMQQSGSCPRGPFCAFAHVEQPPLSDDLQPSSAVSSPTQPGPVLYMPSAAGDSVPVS
Notes: RNA with constant flanks, human and mouse sites, ends assumed
All sequences stand within: GGGAGUUCUACAGUCCGACGAUC … CAACAGAGGAUUGAGCAUCA
Strand | bound/input enrichment [ratio]
CUACCUUCUCGUCUUUAUAGUGCCACAAUUUAUACAGUUCUGUGUUUGACCCGUCGUCUUCAUAGCCUGCAGUUCUUGCCAUUGGCUCCGUUAGGUUUGUCUUCACCCACCAGCUUCAUU | 0.638
AAGCUCCCAGUGUGGGUGGUGGAGGAUCAUCAGGAGGUUCUACCCUUUAUAUACCGGGCCAUAGGCUCAAAGCAUCUUCCUGCCAGUAAUGUAAGUUUUUUACAUUUCGACUCACAUCCA | 0.185
UCUCUUUUUUCACAUUUCCUGUAAACAAUGCAUCUCUUUUUUUAAAAAAGAUUUUACUUUUAAGUACUGUUUUAACAGUGUGGCUAGACUAUAAAUGUACUUGCUGAAUUCAUCCAUUUC | 2.24
GGGGGUGAUGGUCCUAUGUGUCGCCCAGUAAUUCUGUUGCCGGAAGAUACCCCCCCCUUCUUAGAGCUUAAAGGAUCACGCCAUCCUUGCAUUACGAAGACUUUUUUUGGAGAUGAUUUU | 0.44
CCCACACCAAGGGGCCAUGUGCAGCAAGAGCCAAGCAGGCAGCUGUCCAUACUCACUGCCUAGGUGACCCCAGCCCCAGGGCCCAGCCCCAGCCAUUCUGGCUUCAUGCCAGAGGCAGUU | 0.101
GUGGAGAGAGAACUUGUUGAGAAAGAGUUAUUAGAAAAAGUUAAACAUCUUGAGAAUCAAAUAGCCAAAACUCCUGCCUUUGAGUCAGCCAGAGAAGAUUCUUCAAGCUUAGUUGCGGAA | 3.95
CUGACACUCUUAUCCCAGCCUGUACACUGUUUGACCAUUUUGUCUGCAGUCAUUGUGUAUAACUUGAGAGAAACAUACUUUAAAUUACCUGGGAGGGUCUGAAUUCUCUAUUUUUGUGAU | 0.448
GACAGCGGAGAAGAGGUGGAUUUGGUUAAGGAAGCAGAUGUUCCCUCAGCUAUUAGCCUUCUUAGAUUUUUUCUUCAAGAACUUCCUGAACCUGUUAUCCCUGGCAGUUUACAUAUUCAC | 2.69
CAUGGGUUUUAAGUGCUUGUGGCUCACUGAAGCUUAAGUGAGGAUUUCCUUGCAAUGAGUAGAAUUUCCCUUCUCUCCCUUGUCACAGGUUUAAAAACCUCACAGCUUGUAUAAUGUAAC | 0.16
UCAACCAAAGAUGUACAUAAAGGAGAGUCUGGAAGCCAGGAAGCGGCAGUAAACAGUUUUAGCUCUUUAGUUGGUCACCCUGUGACCUCGACUGUUAUUUCACAGCCUAAAAGCUUUGAC | 0.283
UUUGAAGUACCUGGUCUUAGCAUCUGGACAGACCUCUUAUUAGCUCUUCGUAGUGGUGCAUUUAGGAAAAGACAAGUUUUGGGUCUCAGCGCAGGCCUCAGUUCUGUAUAGGCAAUGCUG | 9.41

Sample 2 — technique: RNA Bind-n-Seq; form: RNA; sample: in vitro; tested at: 365 nM; baseline: no-protein control; reading: higher = stronger binding
Target: RNA binding protein fox-1 homolog 2, RRM domain, GST-SBP tag (RBFOX2, Homo sapiens, UniProt O43251-10, residues 100-194)
Notes: natural RNA segment, single round, ends assumed
All sequences stand within: GGGAGUUCUACAGUCCGACGAUC … UGGAAUUCUCGGGUGCCAA
Construct (chain): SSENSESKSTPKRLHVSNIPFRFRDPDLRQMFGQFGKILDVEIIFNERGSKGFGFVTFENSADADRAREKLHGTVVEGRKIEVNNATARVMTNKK
Strand | RBNS enrichment (R)
UGUGGAGGAGCUAACUCGGAUCCAUUAGCCAAGGGCAGGGGGCCCCUUUGCUGACCCUCCCCAAAGGCUUUGCCCUGCUGCCCUCCCCCUCCUCUCCACCAUCGUCUUCU | 0.62
AAUGAAAUUAGUGCCUGUUUUCUUGCAAAUUUAGCACUUGGAACAUUUAAAGAAAGGUCUAUGCUGUCAUAUGGGGUUUAUUGGGAACUAUCCUCCUGGCCCCACCCUGC | 0.325
AGAUACGAAAUCAGUUUCUCAAACUGAGCUUCAGAAAGGGGCAUUUUGUACUCUUGUUUUUGCAUAACUGGUUUUGUUUUUUUGCAGAAUUAACUAUAACAAUCACUGGC | 0.497
UAAACACUGAUCUGGAAAUUGGUCCUGUGAUGCACGUGCUUUGCCCUGGAUGCACCUGAACUCGUCCCCCUCGUCGAGGGGCAGGAGGGCAUGGACAUGGGCUUCUUCAC | 0.773
AGGGCAUUUGUAGAAUUAGUGACCCACUGCAUGUCUGUCCCCAAGGCCGGGAAAAGAGACAGGCAGCUCCUCAGCCUGAGAACGCCGCCGAUGCGACCAAGUGUCAGGCU | 0.447
GCCCGUGGCCCUGCCUCCUAGUGCUCAGGACAGCUCAUUCUCUGUGCAACUUUCAGGAACUUUACUGCAGGUCAGUUAAACACAACUGUUACUGAAAACUAGAUGUAAAC | 0.491
UAGUGAUGCUGGCUCUGCAGUUCCCUCUUGCCCAUCCCCGAGUGGGGACAAUUUCCCCAUCCCCAAGUGGGGACAAUUUACUUCCUUCUUUGCUGGUUUACUCUAGGACU | 0.362
UUCCACUGACUUGCUGUGUGACCUUAGGAAGUCUCUGCCCCUCUCUCAGCCUCAGUGUCCCGAGGGCCCCGAAGCAUUCCAUUCUCGUGGAGGAGUUUCCUUGCUGAGAU | 0.609
GGGGAAAAAACUAAAAUGUGUGGAGUGUAAACAAACUCACUGACCACGUGGCUCUUGGACCUUGAUUUAGAAAGGCUCAUACUCCCAGGAAAACACCCAUUUUGAUACAA | 0.232
CCUUCUUCUGGUGCUACAGCUCCAAGGGCCCUUCACCUUCAUGUCUGAAAUGGAACUUUGGCUUUUUCAGUGGAAGAAUAUGUUGAAGGUUUCAUUUUGUUCUAGAAAAA | 0.391
GGGAAAACACACACACGGAAAAAAAAUUGUAAGCACUUUUUUUGUAAAACCAAUGUCUGUUUUGUUACAUACCUUUCAUGUCGUGCUUUGUAAAUGUCUUAUUUGUGUAA | 0.56
UGAAGUUGGCUUACAUUUCUACAGUGUUAGGGGCGUAGGAGAAUUGGGGCCAACAUCCCAUCAGAAGAUUCGUGAGUCAGUGUAGUUUAGUGUCAAAGCAGCUUGUGUUG | 2.12

Sample 3 — technique: protein binding microarray; form: double-stranded DNA, one strand shown; sample: in vitro; tested at: not given; baseline: not given; reading: higher = stronger binding
Target: Histone acetyltransferase KAT6A, winged helix 1, GST fusion (KAT6A, Homo sapiens, UniProt Q92794, residues 1-85)
Notes: 8-mer, flanks averaged, mean of 2 arrays, mostly near background
Target sequence (chain): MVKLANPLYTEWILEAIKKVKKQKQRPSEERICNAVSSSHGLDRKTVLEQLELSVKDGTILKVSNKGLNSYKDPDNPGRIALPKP
Strand | E-score
AGCCCTAA | -0.00319
AAGTTTAC | -0.0231
AACTCGAT | -0.112
TAGTCAAA | -0.191
GTTCAGTA | 0.0479
ATACAGAC | -0.162
ATCTCACC | 0.000905
TGACCGAA | 0.0588
CATTAGGC | -0.0187
CTTCGTAA | -0.0986
CCAATCGC | -0.0433
GACGCAGA | 0.176
AACAACAC | -0.168
TAGCAGCA | -0.26
ACTACTCC | 0.227
GCCTGTCC | -0.0799
AGCGAACT | -0.193
GTTTCAGA | -0.0118
CATTTGCA | -0.203
ACTACACG | -0.00723
CATGTGCA | -0.0134
TAAAGTCA | -0.17
CGTCGGGC | 0.446
AGAGATGA | -0.132
GCCGGCTA | 0.343

Sample 4 — technique: RNA Bind-n-Seq; form: RNA; sample: in vitro; tested at: 200 nM; notes: whole 134-nt RNA, ends assumed; added: 150 mM KCl; baseline: input library; reading: higher = stronger binding
Target: Ras GTPase-activating protein-binding protein 1, full length (G3BP1, Homo sapiens, UniProt Q13283)
Chain of UniProt Q13283 (whole entry, looked up): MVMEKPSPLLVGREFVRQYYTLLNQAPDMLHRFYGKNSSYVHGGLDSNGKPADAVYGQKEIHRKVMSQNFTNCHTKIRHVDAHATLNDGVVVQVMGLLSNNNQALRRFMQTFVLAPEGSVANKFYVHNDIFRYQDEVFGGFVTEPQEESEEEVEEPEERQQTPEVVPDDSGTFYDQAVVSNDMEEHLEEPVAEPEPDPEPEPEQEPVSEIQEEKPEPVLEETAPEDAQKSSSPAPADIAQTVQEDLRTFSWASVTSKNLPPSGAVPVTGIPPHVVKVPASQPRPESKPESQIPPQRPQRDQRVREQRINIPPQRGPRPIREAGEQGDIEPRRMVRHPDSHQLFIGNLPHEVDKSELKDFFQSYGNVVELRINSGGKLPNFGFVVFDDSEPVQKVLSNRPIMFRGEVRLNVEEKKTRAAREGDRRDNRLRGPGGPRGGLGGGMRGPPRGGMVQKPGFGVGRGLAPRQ
All sequences stand within: GGGAGUUCUACAGUCCGACGAUC … UGGAAUUCUCGGGUGUCAAGG
Strand | log2 enrichment
GUCCUGUGCUACACAUCGUAUGUACCGAAUCAAAUUUAAACCCCCCCAAACCCCCAAAAAAGUAUUAUGUUACGCCGUUCGGAUCUGCAC | -0.18
CCUCAAGUCCUGUGCUACACAUCGUAUGUACCGAAUCGGGGAGGGGAGGGAGGAAAGUAUUAUGUUACGCCGUUCGGAUCUGCACUUCCA | 0.887
UUUGCUGUUGUUAACCAUCAAGGGACCUUGGAGAGUGGCCACUACACCAGCUUUAUCCGGCAGCACAAAGACCAGUGGUUCAAGUGUGAC | -1.03
AAGUCCUGUGCUACACAUCGUAUGUACCGAAUCAAAUUUAAACCCCCAAAUUUAAAAAAGUAUUAUGUUACGCCGUUCGGAUCUGCACUU | -0.289
CAAGUCCUGUGCUACACAUCGUAUGUACCGAAUCGGUGGAAAAAAAGGAAAAAGGAAAGUAUUAUGUUACGCCGUUCGGAUCUGCACUUC | -0.687
UCCUGUGCUACACAUCGUAUGUACCGAAUCGGGAAAAAAGGGAAAAAAGGGAAAAAAGGAAAGUAUUAUGUUACGCCGUUCGGAUCUGCA | -0.468
CACAGACAACACGCACCCACACAGACACAGAGGGAAGGGGUUGGGAUGGGGACAGGGUGCACAGCAAAACGGGGUAGGACCCCAGCCCCU | 1.97
AAGUCCUGUGCUACACAUCGUAUGUACCGAAUCGGGAAAAGGGAAAAGGAAAAGGGAAAGUAUUAUGUUACGCCGUUCGGAUCUGCACUU | -0.693
GGUGUUGCUGGAAGAAGCCAAGGAUUUGCUCUCUGACUGGCUGGAUUCUACACUUGGCUGUGAUGUCACUGACAAUUCCAUCUUCUCCAA | 0.518
GCAGGAAGUAAAAACAAAUGGAAAUGCUUCGGAUAGUGGCAGGGCUGGGGGUUGCUAAGGAAAGGGUGGGAUGGGAGUGGGUAAAGAGUU | 0.977
GUCCUGUGCUACACAUCGUAUGUACCGAAUCGGGGCCCCCGGGCCCCCGGGGCCCCCGGAAAGUAUUAUGUUACGCCGUUCGGAUCUGCA | -1.32
AUGGAUGACCCCUCUGUGGGCCCCAAGAUCCCCCAGGCUUUGGAGAAGAUCCUGCAGCUGAAGGAGAGCCGCCAGGAAGAGAUGAAUUCU | -1.41
AGUCCUGUGCUACACAUCGUAUGUACCGAAUCGGGGCCCCCGGCCCCCGGGCCCCCGGAAAGUAUUAUGUUACGCCGUUCGGAUCUGCAC | -0.871
UCCUCAAGUCCUGUGCUACACAUCGUAUGUACCGAAUCGGAGGGGAGGAGGAAAGUAUUAUGUUACGCCGUUCGGAUCUGCACUUCCAGC | -0.4

Repeated from above (sample 3):
Strand | E-score
AACAACAC | -0.168
TAGCAGCA | -0.26
ACTACTCC | 0.227
GCCTGTCC | -0.0799
AGCGAACT | -0.193
GTTTCAGA | -0.0118
CATTTGCA | -0.203
